Experimental data pooled from the literature.
Each line is one published result; not all experiments were run side by side. “And” joins repeats or separate records; there may be more than shown.
TDP1: Tyrosyl-DNA phosphodiesterase 1 (TDP1, Homo sapiens, UniProt Q9NUW8)
UniProt Q9NUW8, sequence (whole entry, looked up): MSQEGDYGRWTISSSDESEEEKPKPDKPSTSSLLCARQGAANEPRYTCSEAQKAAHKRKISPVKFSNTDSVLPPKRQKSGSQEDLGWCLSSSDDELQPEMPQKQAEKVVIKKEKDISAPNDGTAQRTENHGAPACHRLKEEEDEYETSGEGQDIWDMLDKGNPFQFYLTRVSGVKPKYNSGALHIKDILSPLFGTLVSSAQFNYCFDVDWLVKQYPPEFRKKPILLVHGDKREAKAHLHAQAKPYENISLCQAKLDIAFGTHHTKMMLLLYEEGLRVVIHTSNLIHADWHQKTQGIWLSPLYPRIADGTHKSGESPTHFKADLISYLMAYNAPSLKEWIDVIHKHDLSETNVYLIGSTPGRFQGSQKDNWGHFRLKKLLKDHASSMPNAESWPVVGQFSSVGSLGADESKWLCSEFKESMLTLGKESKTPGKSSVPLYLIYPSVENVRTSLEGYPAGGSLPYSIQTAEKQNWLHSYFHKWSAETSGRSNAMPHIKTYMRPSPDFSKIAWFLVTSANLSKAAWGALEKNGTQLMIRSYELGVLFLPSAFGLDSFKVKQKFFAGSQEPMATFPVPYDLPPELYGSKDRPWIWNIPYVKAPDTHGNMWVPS

| SMILES | target or system | assay | setting | scale | measurement | result |
| --- | --- | --- | --- | --- | --- | --- |
| CNS(=O)(=O)Nc1nccc(Cc2c(C)c3ccc(Oc4ncccc4F)cc3oc2=O)c1F | KMRC-1 | cell viability | 7 days | – | IC50 | > 1000 nM |
| O=C(C[Se]C(=O)c1ccccc1Nc1cccc(C(F)(F)F)c1)Nc1cccc(C(F)(F)F)c1 | NCI60 CNS subpanel | cell growth | 10 µM, 48 h, one-dose | – | mean growth percent | -90.9% |
| C=CC(=O)Nc1cc(Nc2nccc(-c3c(-c4ccc5ccccc5c4)n(C)c4ccccc34)n2)c(OC)cc1N(C)CCN(C)C | NCI-H1975 | cell growth or viability, MTT | 0.5 µM, 72 h | – | inhibition | 72.7% |
| COCCCCCNc1nc(NCCCCCCN(C)C)c2cc(NC(=O)/C=C/CN(C)C)ccc2n1 | MCF7 | CellTiter-Glo | 0.7812 µM, 48 h, unit not given | relative to: DMSO-treated cells | viability | 1.12 and 1.17 and 1.11 |
| COc1ccccc1-c1ccncc1C(=O)Nc1ccc(OCc2ccc(Cl)cc2)nn1 | DLD-1 parental (BRCA2 WT) | – | 5 µM, single run | relative to: untreated | colony survival | 101% and 98.6% and 103% |
| Cn1nc(C=NOCc2ccc3nc(-c4ccccc4)c(Nc4ccc(C(=O)O)cc4)n3c2)cc1-c1ccccc1 (mixture of isomers) | TDP1 | enzyme activity, inhibitor | 100 µM, unpurified compound | – | inhibition | 6.7% |
| O=C(C[Se]C(=O)C12CC3CC(CC(C3)C1)C2)Nc1cccc(C(F)(F)F)c1 | NCI60 CNS subpanel | cell growth | 10 µM, 48 h, one-dose | – | mean growth percent | -69.2% |
| CO[C@@H]1[C@@H](OC(N)=O)[C@@H](O)[C@H](Oc2ccc3c(O)c(NC(=O)c4ccc(O)c(CC=C(C)C)c4)c(=O)oc3c2C)OC1(C)C | DLD-1 BRCA2-/- | – | 200 µM, replicate A | relative to: untreated | colony survival | 0.339% |
| O=C(NCc1cc(F)cc(F)c1)[C@@]1(O)CCN(c2ccc3[nH]ccc3c2)C1=O | HT-1080 | colony formation, soft agar clonogenic | concentration not given | – | efficacy | 52% |
| CN1CCCNC(=O)c2cccc(c2)C(=O)NCCCN(C)CCCNc2cccc3c2C(=O)c2cccc(c2C3=O)NCCC1 | SAS | RNA-Seq, refers to: CCDC51 mRNA | 1 µM, 6 h | relative to: untreated cells | log2 fold change | 0.79 |
| COc1ccc(NC(=O)c2ccc3[nH]c(-c4ccc(N(C)C)cc4)nc3c2)cn1 | HCEC-hTERT | IncuCyte | concentration not given, 18 h | – | dead cell to confluence ratio | 82 and 1.99 and 9.16 |
| CCCC[N+]1=c2cc3c4cc2[O][Mn-2]1(=[C]=O)(=[C]=O)(=[C]=O)[n+]1ccc(cc1)C(=O)NCCNC(=O)c1cc[n+](cc1)[Mn-2](=[C]=O)(=[C]=O)(=[C]=O)([O]3)[N+]=4CCCC | HCT-15 | MTT | 50 µM, 48 h, photolysed compound | – | viability reduction | 95% |
| COc1cc(N(C)CCN(C)C)c(NC(=O)/C=C/c2cc(C)cc(C)c2)cc1Nc1nccc(-c2cn(C)c3ccccc23)n1 | NCI-H1975 | cell growth or viability, MTT | 0.5 µM, 72 h | – | inhibition | 59.4% |
| COc1cc(N2CCN(C(=O)CN)CC2)ccc1Nc1ncc(Cl)c(Nc2ccccc2P(C)(C)=O)n1 | NCI-H3122 | CCK-8 | 50 nM, 48 h | – | viability | 56% |
| Cc1ncsc1-c1ccc(C(C)NC(=O)C2CC(O)CN2C(=O)C(NC(=O)CCCCCCCCCCN2CCCC(Nc3ncc(Cl)c(Nc4ccccc4S(=O)(=O)C(C)C)n3)C2)C(C)(C)C)cc1 (centres unmarked) | 22Rv1 | RNA-seq, refers to: LHX4 mRNA | concentration not given | relative to: DMSO | log2 fold change | -1.41 |
| CC(C)c1ccc(N(C)c2ccc3c(c2)OCC[C@H]3CNc2cnccc2C(=O)O)cc1 | NCI-H1048 | cell viability, CellTiter-Glo | 7 days | – | IC50 | 0.706 nM |
| O=C(C[Se]C(=O)c1ccc2ccccc2c1)Nc1cccc(C(F)(F)F)c1 | NCI60 leukaemia subpanel | NCI60 five-dose screen | – | – | mean TGI | 4160 nM |
| CCc1n(CC(=O)O[C@@H]2C[C@H](C)CC[C@H]2C(C)C)c2ccccc2[n+]1C | HTS cells (mouse) | gene microarray, refers to: SLC7A3 | 1 µM, 12 h, unit not given | relative to: untreated | mRNA level | 5.5 |
| C=CC(=O)Nc1cc(Nc2nccc(-c3c(-c4cc(C)c(F)c(C)c4)n(C)c4ccccc34)n2)c(OC)cc1N(C)CCN(C)C | NCI-H1975 | cell growth or viability, MTT | 0.5 µM, 72 h | – | inhibition | 59.4% |
| CC1(C)CC[C@@]2(CO)C(=C3C=C[C@@H]4[C@@]5(C)CC[C@H](O)[C@@](C)(CO)[C@@H]5CC[C@@]4(C)[C@]3(C)C[C@@H]2O)C1 | HepG2, control siRNA | flow cytometry | concentration not given, high dose, added: ethanol | relative to: control cells | relative ROS fluorescence | 0.586 and 0.745 and 0.93 |
| O=C(Nc1nnc2c1c(-c1ccc(Cl)cc1)nc1sc(=Cc3ccco3)c(=O)n12)c1ccccc1 (mixture of isomers) | HOP-62 | SRB | 10 µM, NCI60 single-dose screen | relative to: untreated | cell growth | 31.1% |
| COc1ccc(NC(=O)c2c(Nc3ccccc3)sc(C(=O)N/N=C/c3ccc(OC)c(OC)c3)c2NC(C)=O)cc1 | HepG2 | cell growth or viability, SRB | 100 µM, 48 h | – | viability | 40.2% |

| SMILES | target or system | assay | setting | scale | measurement | result |
| --- | --- | --- | --- | --- | --- | --- |
| CCN(CC)CC(=O)Nc1cccc(-n2cc(-c3ccc4ccc(-c5cn(-c6cccc(NC(=O)CN(CC)CC)c6)nn5)cc4c3)nn2)c1 | RCC4 | PCR array, refers to: EGF | 5 x IC50, 4 h, normoxia | relative to: untreated | fold regulation | -1.51 |
| C=CC(=O)Nc1cc(Nc2nccc(-c3c(-c4ccc(-c5ccccc5)cc4)n(C)c4ccccc34)n2)c(OC)cc1N(C)CCN(C)C | NCI-H1975 | cell growth or viability, MTT | 0.5 µM, 72 h | – | inhibition | 64.1% |
| Cn1ncc2cc(-c3cncc(Cl)c3N3CCC4(CCNC4=O)CC3)ccc21 | LS174T | gene expression, microarray, refers to: CARD6 mRNA | concentration not given, 24 h | relative to: untreated cells | log2 fold change | -2.16 |
| O=C(O)c1ccc(Nc2c(-c3ccc(CON=Cc4cn(Cc5ccc(Cl)cc5)nn4)cc3)nc3cc(-c4ccccc4)ccn23)cc1 (mixture of isomers) | TDP1 | enzyme activity, inhibitor | 100 µM, unpurified compound | – | inhibition | 45.7% |
| O=C(C[Se]C(=O)c1cc2ccccc2[nH]1)Nc1cccc(C(F)(F)F)c1 | HCC 2998 | cell growth or viability, SRB | – | – | GI50 | 430 nM |
| CCCCCCc1cccc([C@H](O)C[C@H](CO)NC(=O)CCCCCCCCCCBr)c1 | HeLa | HPLC-MS-MS lipidomics, refers to: C20 SM and ceramide | 1 µM, 24 h | relative to: SM over Cer | SM/Cer ratio | 41 ,0 |
| CN(C)CCN1CCN(c2ccc3nc(-c4ccc5nc(-c6ccc(C(F)(F)F)cc6)[nH]c5c4)[nH]c3c2)CC1 | UACC-257 | SRB | 10 µM, 48 h | – | growth percent | 40.7% |
| NC(=O)c1ccc(-c2ccccc2Cl)c2c3c([nH]c12)CC[C@H](N)C3 | DOHH-2 | cell growth or viability | – | – | IC50 | 23.2 nM |
| COC(=O)c1cc(NC2=NC(=O)C(=Cc3ccc(N(C)C)cc3)S2)ccc1OC(C)=O | MCF7 | refers to: RAD51 mRNA | 0.81 µM (IC50), 24 h | relative to: DMSO | fold change | 0.25 |
| CCN(C(=O)c1cc(F)ccc1Oc1nncnc1N1CCC2(C1)CN([C@H](CCCN(C)CCOC)C(C)C)C2)C(C)C | MV4-11 | cell growth or viability | 72 h | – | GI50 | 17.5 nM |
| CN(C)CCOc1cc(NC(=O)c2cccc(C(=O)Nc3cc(OCCN(C)C)c4ccccc4n3)n2)nc2ccccc12 | HT-1080 | cell viability, CellTiter-Glo | 72 h | relative to: IC50 HT-1080 over WI-38 | selectivity ratio | 0.6 |
| O=C(C[Se]C(=O)c1ccc2ccccc2n1)Nc1cccc(C(F)(F)F)c1 | NCI60 melanoma subpanel | cell growth, inhibitor | five-dose | – | GI50 | 1840 nM |
| O=C(c1cccc(N2Cc3cn(Cc4ccc(F)cc4)nc3C2)c1)N1CCCCC1 | HEK293 expressing GluA1 and GluA2 | glutamate excitotoxic cell death, CellTox Green | added: glutamate | – | IC50 | 79 nM |
| O=C(N1CCCC1)n1cc(-c2ccc(-c3ccccc3)cc2)nn1 | mouse T cells | N-terminal labelling proteomics, refers to: Paip2 N-terminal peptide | 0.001 µM, 6 h | relative to: DMSO | SILAC ratio per peptide | 1.27 and 0.87 and 1.18 and 1.03 and 1.15 and 0.94 and 1.06 |
| COc1cc(N(C)CCN(C)C)c(NC(=O)/C=C/c2cc(-c3ccccc3)cc(-c3ccccc3)c2)cc1Nc1nccc(-c2cn(C)c3ccccc23)n1 | NCI-H1975 | cell growth or viability, MTT | 0.5 µM, 72 h | – | inhibition | 61.5% |
| CC(=O)Oc1ccccc1C(=O)[Se]CC(=O)Nc1cccc(C(F)(F)F)c1 | NCI60 melanoma subpanel | total growth inhibition, inhibitor | five-dose | – | mean TGI | 5200 nM |
| CC1(C)CC(=O)C2=C(C1)Oc1ccc3ccccc3c1C2c1c[nH]c2ccccc12 (centres unmarked) | 3T3-L1 preadipocytes | adipogenesis, Oil Red O staining | IC20, 14 days, single replicate | – | lipid content | 1 OD492 and 1.04 OD492 and 1.06 OD492 |
| N#Cc1ccnc(N2Cc3cnn(Cc4ccc(F)cc4)c3C2)n1 | HEK293 expressing GluA1 and GluA2 | glutamate excitotoxic cell death, CellTox Green | added: glutamate | – | IC50 | 247 nM |
| O=C(C[Se]C(=O)c1cccnc1Nc1cccc(C(F)(F)F)c1)Nc1cccc(C(F)(F)F)c1 | NCI60 melanoma subpanel | cell growth | 10 µM, 48 h, one-dose | – | mean growth percent | -88.1% |
| COC(=O)C1=C(C)Oc2ccc(Br)cc2C1C(C(C)=O)C(=O)OC (centres unmarked) | 3T3-L1 preadipocytes | adipogenesis, Oil Red O staining | IC20, 14 days | – | mean lipid content | 0.71 OD492 |
| O=C(C[Se]C(=O)c1cc2ccccc2s1)Nc1cccc(C(F)(F)F)c1 | NCI60 melanoma subpanel | cell growth, inhibitor | five-dose | – | GI50 | 1410 nM |
| CN(C)C(=O)c1ccc(N2Cc3cn(Cc4ccc(F)cc4)nc3C2)cc1 | HEK293 expressing GluA1 and GluA2 | glutamate excitotoxic cell death, CellTox Green | added: glutamate | – | IC50 | 8.6 nM |

Repeated from above:
| SMILES | target or system | assay | setting | scale | measurement | result |
| --- | --- | --- | --- | --- | --- | --- |
| O=C(C[Se]C(=O)c1ccc2ccccc2n1)Nc1cccc(C(F)(F)F)c1 | NCI60 melanoma subpanel | cell growth, inhibitor | five-dose | – | GI50 | 1840 nM |
| COC(=O)c1cc(NC2=NC(=O)C(=Cc3ccc(N(C)C)cc3)S2)ccc1OC(C)=O | MCF7 | refers to: RAD51 mRNA | 0.81 µM (IC50), 24 h | relative to: DMSO | fold change | 0.25 |
| CC1(C)CC(=O)C2=C(C1)Oc1ccc3ccccc3c1C2c1c[nH]c2ccccc12 (centres unmarked) | 3T3-L1 preadipocytes | adipogenesis, Oil Red O staining | IC20, 14 days, single replicate | – | lipid content | 1 OD492 and 1.04 OD492 and 1.06 OD492 |
